Experimental data gathered from unrelated publications.
Parts stem from different laboratories: compare values within a part only. Positions count from the first letter of the parent shown.

Study 1
Target: Histone acetyltransferase KAT6A, winged helix 2, GST fusion (KAT6A, Homo sapiens, UniProt Q92794, residues 85-181)
Method: protein binding microarray
Form: double-stranded DNA, one strand shown
Sample: in vitro
Concentration: not given
Setting: 8-mer, flanks averaged, mean of 2 arrays, mostly near background
Relative to: not given
Reading: higher = stronger binding
Residues (chain): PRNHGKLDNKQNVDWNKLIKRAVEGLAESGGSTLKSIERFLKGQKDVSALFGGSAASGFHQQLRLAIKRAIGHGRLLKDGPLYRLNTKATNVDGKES
Sequence | E-score
TACACAAA | 0.116
ATCGCACG | -0.0796
CATCACTC | -0.0835
ACCATGCG | 0.0529
TACCGGCA | -0.111
GTGGAGAA | 0.0432
ACCAAGAC | 0.00257
ACAACAAT | -0.0712
TATCCCCA | -0.123
ACCCCGAG | -0.0497
CAGCGGGA | 0.156
GCACCCGC | 0.237
TATTGCAA | -0.0274

Study 2
Target: ABI1, truncated, D143A, DHFR fusion (Arabidopsis thaliana)
Method: DHFR PCA, deep sequencing
Sample: yeast
Setting: methotrexate growth selection, single substitutions
Together with: (+)-ABA 200 µM
Relative to: wild-type fitted maximum
Reading: higher = stronger binding
Starting sequence: PYL1, truncated, DHFR fusion (Arabidopsis thaliana); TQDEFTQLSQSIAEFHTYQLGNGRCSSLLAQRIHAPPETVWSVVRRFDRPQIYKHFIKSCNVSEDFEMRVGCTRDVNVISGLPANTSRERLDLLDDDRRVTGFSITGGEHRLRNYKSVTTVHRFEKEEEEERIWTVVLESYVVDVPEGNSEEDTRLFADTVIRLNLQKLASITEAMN; partner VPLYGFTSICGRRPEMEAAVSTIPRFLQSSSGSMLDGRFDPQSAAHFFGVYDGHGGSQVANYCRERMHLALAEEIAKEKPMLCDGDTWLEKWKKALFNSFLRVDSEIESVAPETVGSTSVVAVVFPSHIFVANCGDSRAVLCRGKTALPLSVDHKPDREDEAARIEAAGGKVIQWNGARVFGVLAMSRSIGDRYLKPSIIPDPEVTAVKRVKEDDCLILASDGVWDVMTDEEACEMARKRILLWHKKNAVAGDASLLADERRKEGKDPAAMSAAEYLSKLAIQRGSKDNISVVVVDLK
Change | relative binding score
L93W | 86%
P37L | 81%
V43P | -31.9%
W134E | 111%
V145Q | 64.2%
T1P | 97.7%
S9C | 86.1%
Q19G | 94%
V44D | -17.9%
S42C | 91.4%

Study 3
Target: CCNB3, cyclin fold, Cln2 fusion (human)
Method: yeast growth competition, sequencing
Sample: yeast
Setting: weak parent motif
Relative to: not given
Reading: higher = stronger binding
Starting sequence: PKN2 docking peptide (human); VSAVQKLDFSDTM; partner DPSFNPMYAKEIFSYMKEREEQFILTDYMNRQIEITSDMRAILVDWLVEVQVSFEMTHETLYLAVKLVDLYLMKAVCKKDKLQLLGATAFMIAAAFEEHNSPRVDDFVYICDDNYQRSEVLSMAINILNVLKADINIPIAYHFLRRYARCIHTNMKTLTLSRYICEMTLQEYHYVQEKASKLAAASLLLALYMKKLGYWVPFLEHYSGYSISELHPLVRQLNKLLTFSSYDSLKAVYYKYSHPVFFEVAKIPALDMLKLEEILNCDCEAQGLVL
Change | normalised enrichment score
VHAVQKLDFSDTM [S2H] | -0.214
VYAVQKLDFSDTM [S2Y] | 0.398
VQAVQKLDFSDTM [S2Q] | 0.325
VSAVQKVDFSDTM [L7V] | 0.318
FSAVQKLDFSDTM [V1F] | 0.748
VSAVQKLDFSDTK [M13K] | -0.0931
VSAVQKLDFSDTI [M13I] | 0.271
VSAVQKMDFSDTM [L7M] | 0.152
ASAVQKLDFSDTM [V1A] | -0.0483
VSAVQKLDFSDEM [T12E] | 0.832
VSAHQKLDFSDTM [V4H] | 0.276
VSAVQILDFSDTM [K6I] | 0.246

Other studies, line by line
Substance | target | assay | system | conditions | scale | endpoint | result
PhoQ, residues 284 288 289 292 302 303 WVSSAF | PhoP, residues 12 14 15 18 19 YHFSH (Escherichia coli, UniProt P23836) | Sort-seq, measured: YFP reporter | E. coli | PhoQ-PhoP variant library, together with: 10 µM Mg2+ | relative to: high Mg2+ state, higher = stronger signaling | fold induction | 1.55

Repeated from above (study 1):
Sequence | E-score
ACCATGCG | 0.0529
CAGCGGGA | 0.156
GTGGAGAA | 0.0432
